# Experimental data collected from several papers.
# Protocols differ between the studies behind these lines. Values joined by “and” are separate records of one study, mostly repeats; a detail may differ. ± marks the error that the study gave.
# CASP9: Caspase-9 (CASP9, Homo sapiens, UniProt P55211)
# UniProt P55211, sequence (whole entry, looked up): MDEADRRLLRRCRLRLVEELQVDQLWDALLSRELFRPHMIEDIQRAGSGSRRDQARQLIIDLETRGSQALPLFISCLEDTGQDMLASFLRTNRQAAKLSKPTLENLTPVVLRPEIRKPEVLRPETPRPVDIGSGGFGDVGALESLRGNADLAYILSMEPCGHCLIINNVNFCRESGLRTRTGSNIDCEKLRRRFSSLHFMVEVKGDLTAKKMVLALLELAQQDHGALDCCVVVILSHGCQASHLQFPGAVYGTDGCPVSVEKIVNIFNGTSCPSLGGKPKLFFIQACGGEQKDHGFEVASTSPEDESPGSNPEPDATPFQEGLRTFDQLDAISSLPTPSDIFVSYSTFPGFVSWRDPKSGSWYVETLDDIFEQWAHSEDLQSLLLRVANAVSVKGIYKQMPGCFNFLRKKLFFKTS
# Lysophospholipase-like protein 1: Lysophospholipase-like protein 1 (Mus musculus, UniProt Q3UFF7)
# UniProt P18669, sequence (whole entry, looked up): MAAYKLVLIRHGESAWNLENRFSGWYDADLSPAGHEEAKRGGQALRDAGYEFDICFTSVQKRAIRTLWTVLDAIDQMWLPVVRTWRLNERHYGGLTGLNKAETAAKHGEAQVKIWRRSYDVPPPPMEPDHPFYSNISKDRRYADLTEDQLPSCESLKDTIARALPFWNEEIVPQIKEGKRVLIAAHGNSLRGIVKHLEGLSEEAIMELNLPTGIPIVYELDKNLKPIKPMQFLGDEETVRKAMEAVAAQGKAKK
# UniProt Q92633, sequence (whole entry, unmodified, looked up): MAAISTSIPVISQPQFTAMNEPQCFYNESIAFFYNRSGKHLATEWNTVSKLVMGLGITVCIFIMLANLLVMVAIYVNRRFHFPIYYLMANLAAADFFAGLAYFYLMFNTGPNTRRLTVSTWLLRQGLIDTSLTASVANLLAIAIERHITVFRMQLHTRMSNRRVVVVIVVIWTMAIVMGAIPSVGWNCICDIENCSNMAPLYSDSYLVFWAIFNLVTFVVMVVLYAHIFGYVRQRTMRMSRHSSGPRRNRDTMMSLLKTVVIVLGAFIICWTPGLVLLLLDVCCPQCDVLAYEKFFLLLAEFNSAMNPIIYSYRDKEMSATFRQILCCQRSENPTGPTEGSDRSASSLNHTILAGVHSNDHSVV
# UniProt Q3UFF7, sequence (whole entry, looked up): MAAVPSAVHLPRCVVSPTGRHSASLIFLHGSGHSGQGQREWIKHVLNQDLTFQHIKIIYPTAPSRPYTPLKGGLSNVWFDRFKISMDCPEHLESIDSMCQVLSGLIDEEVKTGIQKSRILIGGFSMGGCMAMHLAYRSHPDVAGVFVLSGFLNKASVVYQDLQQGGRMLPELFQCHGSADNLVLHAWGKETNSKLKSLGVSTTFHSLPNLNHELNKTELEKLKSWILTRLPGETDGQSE
# UniProt Q9HB29, sequence (whole entry, looked up): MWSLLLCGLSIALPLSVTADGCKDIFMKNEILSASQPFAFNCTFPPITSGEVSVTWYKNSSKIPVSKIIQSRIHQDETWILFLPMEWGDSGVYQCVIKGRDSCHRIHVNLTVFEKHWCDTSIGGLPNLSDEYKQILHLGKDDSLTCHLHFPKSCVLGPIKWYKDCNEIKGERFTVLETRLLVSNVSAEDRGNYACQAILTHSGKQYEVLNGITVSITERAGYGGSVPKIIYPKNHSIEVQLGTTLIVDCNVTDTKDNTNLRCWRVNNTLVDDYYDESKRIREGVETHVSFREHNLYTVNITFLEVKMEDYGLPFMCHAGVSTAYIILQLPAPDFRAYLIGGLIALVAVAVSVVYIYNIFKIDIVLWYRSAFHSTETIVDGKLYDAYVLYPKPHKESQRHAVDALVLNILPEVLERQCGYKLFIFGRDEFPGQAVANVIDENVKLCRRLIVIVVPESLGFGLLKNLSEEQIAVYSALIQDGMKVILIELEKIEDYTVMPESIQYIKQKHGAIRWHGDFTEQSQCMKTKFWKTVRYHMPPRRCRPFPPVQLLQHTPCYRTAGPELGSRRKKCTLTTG
# UniProt Q02127, sequence (whole entry, looked up): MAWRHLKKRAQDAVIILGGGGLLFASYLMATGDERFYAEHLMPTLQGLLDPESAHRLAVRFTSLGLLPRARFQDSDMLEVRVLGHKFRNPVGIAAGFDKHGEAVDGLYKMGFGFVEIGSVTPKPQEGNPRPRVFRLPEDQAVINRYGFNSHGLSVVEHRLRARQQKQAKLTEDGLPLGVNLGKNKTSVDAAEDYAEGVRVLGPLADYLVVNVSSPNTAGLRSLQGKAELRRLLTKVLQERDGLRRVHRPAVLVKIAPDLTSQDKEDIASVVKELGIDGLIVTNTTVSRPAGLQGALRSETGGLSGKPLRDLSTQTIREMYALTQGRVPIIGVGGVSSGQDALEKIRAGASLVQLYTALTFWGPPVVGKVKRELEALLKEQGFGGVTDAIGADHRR
# UniProt P55263, sequence (whole entry, looked up): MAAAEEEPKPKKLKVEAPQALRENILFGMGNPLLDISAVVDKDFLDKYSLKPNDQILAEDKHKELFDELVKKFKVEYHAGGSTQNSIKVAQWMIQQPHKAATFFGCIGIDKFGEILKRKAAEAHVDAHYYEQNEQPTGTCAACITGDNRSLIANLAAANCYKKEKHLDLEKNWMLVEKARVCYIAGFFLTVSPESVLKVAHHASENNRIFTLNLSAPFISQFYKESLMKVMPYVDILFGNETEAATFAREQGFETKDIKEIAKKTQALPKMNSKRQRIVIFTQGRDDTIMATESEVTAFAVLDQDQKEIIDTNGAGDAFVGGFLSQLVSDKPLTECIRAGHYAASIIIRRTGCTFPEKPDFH
# UniProt P62258, sequence (whole entry, unmodified, looked up): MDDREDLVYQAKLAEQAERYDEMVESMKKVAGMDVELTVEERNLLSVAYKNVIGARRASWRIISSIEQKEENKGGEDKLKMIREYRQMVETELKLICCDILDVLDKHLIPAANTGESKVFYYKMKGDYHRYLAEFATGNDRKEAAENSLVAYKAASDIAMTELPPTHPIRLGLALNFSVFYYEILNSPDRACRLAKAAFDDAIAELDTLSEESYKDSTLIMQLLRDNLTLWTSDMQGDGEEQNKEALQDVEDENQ
# UniProt P45983, sequence (whole entry, looked up): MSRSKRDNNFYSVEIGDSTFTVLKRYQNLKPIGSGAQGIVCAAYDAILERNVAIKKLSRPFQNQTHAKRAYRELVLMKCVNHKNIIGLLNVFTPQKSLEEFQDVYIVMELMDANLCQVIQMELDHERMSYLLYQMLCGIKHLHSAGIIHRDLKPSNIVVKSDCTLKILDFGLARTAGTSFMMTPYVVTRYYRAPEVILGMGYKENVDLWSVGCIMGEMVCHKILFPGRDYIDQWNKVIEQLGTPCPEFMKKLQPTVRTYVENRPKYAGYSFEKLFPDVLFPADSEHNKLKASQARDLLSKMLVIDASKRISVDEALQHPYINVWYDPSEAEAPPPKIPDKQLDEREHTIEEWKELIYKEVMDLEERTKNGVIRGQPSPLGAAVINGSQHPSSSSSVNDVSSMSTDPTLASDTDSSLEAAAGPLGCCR
# UniProt P45974, sequence (whole entry, looked up): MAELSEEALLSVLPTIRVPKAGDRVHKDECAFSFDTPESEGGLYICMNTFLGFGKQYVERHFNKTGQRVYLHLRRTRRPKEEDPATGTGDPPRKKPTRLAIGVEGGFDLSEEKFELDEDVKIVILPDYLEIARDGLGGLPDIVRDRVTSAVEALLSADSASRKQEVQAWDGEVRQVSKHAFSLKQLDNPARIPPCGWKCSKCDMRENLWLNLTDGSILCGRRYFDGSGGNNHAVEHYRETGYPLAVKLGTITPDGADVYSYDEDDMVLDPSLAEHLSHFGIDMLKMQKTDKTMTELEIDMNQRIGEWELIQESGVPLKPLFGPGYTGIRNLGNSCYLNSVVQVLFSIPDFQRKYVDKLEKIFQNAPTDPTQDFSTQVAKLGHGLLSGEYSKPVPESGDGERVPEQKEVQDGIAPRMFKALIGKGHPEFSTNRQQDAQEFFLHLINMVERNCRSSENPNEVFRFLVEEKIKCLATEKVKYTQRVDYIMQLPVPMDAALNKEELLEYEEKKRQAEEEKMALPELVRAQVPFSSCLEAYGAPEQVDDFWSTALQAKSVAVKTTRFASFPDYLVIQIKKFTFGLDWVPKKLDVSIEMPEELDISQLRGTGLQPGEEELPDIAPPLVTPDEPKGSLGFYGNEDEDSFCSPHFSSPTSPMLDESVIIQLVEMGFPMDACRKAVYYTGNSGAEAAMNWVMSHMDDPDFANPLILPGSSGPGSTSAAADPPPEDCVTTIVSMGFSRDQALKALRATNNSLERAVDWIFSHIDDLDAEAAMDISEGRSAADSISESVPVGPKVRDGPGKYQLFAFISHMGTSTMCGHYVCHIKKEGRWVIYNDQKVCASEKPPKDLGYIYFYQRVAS
# UniProt P01317, sequence (whole entry, looked up): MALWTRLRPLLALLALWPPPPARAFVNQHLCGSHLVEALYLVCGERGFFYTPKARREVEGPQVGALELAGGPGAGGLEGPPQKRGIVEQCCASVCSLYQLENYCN
# UniProt Q9NSD7, sequence (whole entry, unmodified, looked up): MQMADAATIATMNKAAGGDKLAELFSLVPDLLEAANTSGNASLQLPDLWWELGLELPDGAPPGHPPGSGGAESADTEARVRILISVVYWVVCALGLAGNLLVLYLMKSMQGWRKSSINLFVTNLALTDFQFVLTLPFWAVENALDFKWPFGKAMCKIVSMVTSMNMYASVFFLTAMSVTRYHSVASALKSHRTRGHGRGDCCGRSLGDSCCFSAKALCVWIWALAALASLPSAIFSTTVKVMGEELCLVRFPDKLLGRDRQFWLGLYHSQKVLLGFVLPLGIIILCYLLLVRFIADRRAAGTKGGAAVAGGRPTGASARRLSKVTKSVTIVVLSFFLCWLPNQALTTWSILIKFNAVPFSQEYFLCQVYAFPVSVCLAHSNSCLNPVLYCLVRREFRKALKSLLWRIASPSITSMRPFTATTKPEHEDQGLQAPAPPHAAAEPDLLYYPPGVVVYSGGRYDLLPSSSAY
# UniProt Q9JJ74, sequence (whole entry, looked up): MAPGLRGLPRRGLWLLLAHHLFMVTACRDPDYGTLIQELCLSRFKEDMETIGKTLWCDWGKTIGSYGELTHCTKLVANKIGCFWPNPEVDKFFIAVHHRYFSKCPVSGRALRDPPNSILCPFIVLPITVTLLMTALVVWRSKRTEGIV
SMILES,target,test,test system,setting,scale,measurement,result
C=CC(=O)N1CCCC(n2c(=O)c3ncccc3n(Cc3ccc(Oc4ccccc4)cc3)c2=O)C1 (centres unmarked),"Talin-1 (TLN1, Homo sapiens, UniProt Q9Y490)",thermal proteome profiling,cell proteome,unit not given,relative to: vehicle,melting temperature shift,-3.71
CCN(CC)C(CO)c1cccc2c(C)c(C)oc12 (centres unmarked),"Lysophosphatidic acid receptor 1 (LPAR1, Homo sapiens, UniProt Q92633, W271A)","G-protein dissociation, agonist, NanoBiT",HEK-293T,"1 µM, W271A mutant",relative to: baseline luminescence,fold change,0.71 and 0.487 and 0.58 and 1 and 0.662 and 0.935
CC1CCCc2nc(N)nc(N)c21 (centres unmarked),"Dihydrofolate reductase (folA, Escherichia coli, UniProt P0ABQ4)",,,"concentration not given, ternary complex with NADPH",,major state population,96.6 ± 0.3%
CC(C)[C@@H]1NC(=O)[C@H](Cc2ccccc2)NC(=O)CSC[C@@H](C(N)=O)NC(=O)[C@H](CCC(=O)O)NC(=O)[C@H](CO)NC(=O)[C@H](Cc2c[nH]c3cccc(Cl)c23)NC(=O)[C@H](C2CCCCC2)NC(=O)[C@H](C(C)C)NC(=O)[C@H](Cc2ccc(O)cc2)NC(=O)[C@H](CC(=O)O)NC(=O)[C@H](Cc2c[nH]c3ccccc23)NC(=O)[C@H](Cc2ccc(N)nc2)NC(=O)[C@H](Cc2c[nH]c3ccc(Cl)cc23)NC(=O)[C@H](CCC(=O)O)NC1=O,"Interleukin-1 receptor-like 2 (IL1RL2, Homo sapiens, UniProt Q9HB29)","reporter gene (SEAP), inhibitor, HEK-Blue IL-36R reporter",HEK-Blue IL-36R cells,"1.23 µM, 6 h, with: IL-36β 10 ng/mL",,remaining activity,90.6%
Fc1ccc(Nc2nc(NC3CCCCC3)c3cc(Br)ccc3n2)cc1F,"Beta-2 adrenergic receptor (ADRB2, Homo sapiens, UniProt P07550, C125V)","β-arrestin2 recruitment, antagonist, BRET",,mutant C125V,relative to: isoprenaline maximal response,maximal inhibition,23.1%
C=CC(=O)N1[C@H](c2ccc3c(c2)OCO3)c2[nH]c3ccccc3c2C[C@H]1C(=O)N1CCOCC1,"Hepatocyte nuclear factor 3-alpha (FOXA1, Homo sapiens, UniProt P55317)",ChIP-seq,22Rv1,"concentration not given, log2FC above 2",,increased binding sites,329 sites
CC(=O)N[C@@H](CC(=O)O)C(=O)N[C@@H](CO)C(=O)N[C@@H](C)C(=O)N[C@@H](CC(=O)O)C(=O)COC(=O)c1c(C)cccc1C,CASP9,"enzyme activity, inhibitor",,,,kinact/KI,4300 M⁻¹ s⁻¹
O=C(O)C(COP(=O)(O)O)OP(=O)(O)O (centres unmarked),"Phosphoglycerate mutase 1 (Homo sapiens, UniProt P18669)",,,"0.04 mM, unit not given",relative to: activity at 1 mM set to 100,enzyme activity,97.6 and 111 and 98.6 and 89.5
CCCCCC(O)/C=C/C=O (centres unmarked),"Adenosine kinase (ADK, Homo sapiens, UniProt P55263)",competitive isoTOP-ABPP,Ramos soluble proteome,"100 µM, with: iodoacetamide probe","relative to: DMSO over compound-treated, higher = stronger cysteine blockade",isoTOP-ABPP competition ratio,1.2
O=C(c1cccc(C(F)(F)F)n1)c1c[nH]c2ccccc12,"Aryl hydrocarbon receptor (AHR, Homo sapiens, UniProt P35869)","reporter gene, agonist, XRE luciferase",HepG2,,relative to: ITE,Emax,60 ± 4%
COc1ccccc1-c1ccncc1C(=O)Nc1nnc(OCc2ccc(Cl)cc2)s1,"DNA polymerase theta, helicase domain (POLQ, Homo sapiens, UniProt O75417)","ATPase activity, ADP-Glo",,"0.03 µM, with: ATP 600 µM",,remaining activity,51%
CC(C)C[C@H](NC(=O)[C@H](CCCN)NC(=O)CNC(=O)[C@@H](NC(=O)[C@H](C)NC(=O)[C@@H]1CSCSC[C@H](NC(=O)CC[C@H](N)C(=O)O)C(=O)N[C@@H](CC(N)=O)C(=O)N[C@@H]([C@@H](C)O)C(=O)N[C@@H](C)C(=O)N[C@@H]([C@@H](C)O)C(=O)N1)[C@@H](C)O)C(=O)N[C@@H](C)C(=O)N[C@@H](CCC(=O)O)C(=O)N[C@@](C)(Cc1ccccc1)C(=O)N[C@@H](CC(C)C)C(=O)N[C@H](C(=O)N[C@@H](CCCNC(=N)N)C(=O)N[C@@H](CO)C(=O)N[C@@H](CO)C(=O)N[C@@H](CC(N)=O)C(=O)N(C)[C@@H](CC(N)=O)C(=O)N[C@@H](Cc1ccccc1)C(=O)NCC(=O)N1CCC[C@H]1C(=O)N[C@@H](CCCCNC(=O)CC[C@H](NC(=O)CC[C@H](NC(=O)CCCCCCCCCCCCCCCCCCC(=O)O)C(=O)O)C(=O)O)C(=O)N[C@@H](CC(C)C)C(=O)N1CCC[C@H]1C(=O)N1CCC[C@H]1C(=O)N[C@H](C(=O)N[C@@H](CCC(=O)O)C(=O)N[C@H](C(=O)NCC(=O)N[C@@H](CO)C(=O)N[C@@H](CC(N)=O)C(=O)N[C@H](C(=O)N[C@@H](Cc1ccc(O)cc1)C(N)=O)[C@@H](C)O)C(C)C)[C@@H](C)O)C(C)C,"Calcr/Ramp1 (Rattus norvegicus, UniProt P32214+Q9JJ74)","cAMP accumulation, agonist",UMUC3 cells,,relative to: rat amylin maximal response,Emax,> 80%
CC(=O)N[C@@H](CCC(N)=O)C(=O)N[C@@H](CC(C)C)C(=O)N[C@@H](CCCC(=O)O)C(=O)N1CCC[C@H]1C(=O)N[C@@H](CC(=O)O)C(=O)COC(=O)c1c(C)cccc1C,"Caspase-4 (CASP4, Homo sapiens, UniProt P49662)","enzyme activity, inhibitor",,,,kinact/KI,71000 M⁻¹ s⁻¹
Nc1nc(SCc2ccc(Cl)cc2)nn1S(=O)(=O)c1cccc(NC(=O)c2ccccc2)c1,Lysophospholipase-like protein 1,"enzyme activity, activator, gel-based ABPP",purified protein,"concentration not given, with: FP-rhodamine",relative to: DMSO,probe labeling increase,3.1 fold
O=C(Nc1ccc(N2CCOCC2)c2nonc12)c1cccs1,"Ubiquitin carboxyl-terminal hydrolase 5 (USP5, Homo sapiens, UniProt P45974)","enzyme activity, inhibitor",,17 µM,,inhibition,55%
COC(=O)[C@@]1(C)C=C(C(=O)Nc2cccc(C(=O)Nc3ccc(Nc4nccc(-c5cccnc5)n4)c(C)c3)c2)C(=O)CC1,"Mitogen-activated protein kinase 8 (MAPK8, Homo sapiens, UniProt P45983)","enzyme activity, inhibitor",,"0.06097 µM, 0 h, unit not given, with: GSH 10 mM pre-incubation",relative to: vehicle,remaining activity,0.302
CC[C@H](C)[C@H](NC(=O)[C@H](CC(=O)O)NC(C)=O)C(=O)N[C@H](C(=O)N[C@H](C(=O)N[C@@H](CCCNC(=N)N)C(=O)N[C@@H](Cc1ccc(O)cc1)C(=O)N[C@@H](CC(N)=O)C(=O)NCC(=O)N[C@@H](CCCCN)C(=O)N[C@H](C(=O)N[C@@H](Cc1c[nH]c2ccccc12)C(=O)N[C@@H](Cc1c[nH]c2ccccc12)C(=O)N[C@@H](CCCNC(=N)N)C(=O)O)C(C)C)[C@@H](C)O)[C@@H](C)O,"Insulin (INS, Bos taurus, UniProt P01317)",circular dichroism,INS-peptide complex,"800 min, final heating stage, with: INS 350 µM",,α-helix content,62%
CC(=O)N[C@@H](CCCNC(=N)N)C(=O)N[C@H](C(=O)N[C@@H](CCCCN)C(=O)N[C@@H](CO)C(=O)N[C@@H](CCCNC(=N)N)C(=O)N[C@H](C(=O)N[C@@H](Cc1c[nH]c2ccccc12)C(=O)N[C@@H](C)C(=O)NCC(N)=O)[C@@H](C)OP(=O)(O)O)[C@@H](C)O,"14-3-3 protein epsilon (Homo sapiens, UniProt P62258)","thermal stability, DSF",,"30 µM, pH 7.4",,ΔTm,3.7 °C
Cc1nc2ccc(S(=O)(=O)n3nc(CCc4ccc(Cl)cc4)nc3N)cc2s1,Lysophospholipase-like protein 1,"enzyme activity, activator, gel-based ABPP",purified protein,"concentration not given, with: FP-rhodamine",relative to: DMSO,probe labeling increase,2 fold
CCc1ccc(NS(=O)(=O)c2c(C)[nH]c(C)c2C(=O)N2CCCC2)cc1,"D(3) dopamine receptor (DRD3, Homo sapiens, UniProt P35462)","β-arrestin recruitment, agonist, PathHunter",,,relative to: dopamine,Imax,99 ± 3%
CN(C)c1ccc2c(c1)C(=O)N(c1ccc(S(N)(=O)=O)cc1)C2=O,"Carbonic anhydrase 2 (CA2, Homo sapiens, UniProt P00918)",binding,,"2 µM, pH 7.2",relative to: without protein,fluorescence turn-on,2.2 ± 0.03 fold
Cc1ccc(/N=C2\NC(=O)/C(=C/c3cccc4ccccc34)S2)c(C(=O)O)c1,"Dihydroorotate dehydrogenase (quinone), mitochondrial (DHODH, Homo sapiens, UniProt Q02127)","enzyme activity, inhibitor, DCIP reduction",,0.05 µM,higher = more activity,reaction rate,-23.6 a.u.
CC[C@H](C)[C@H](NC(=O)[C@H](Cc1ccccc1)NC(=O)[C@H](CCC(=O)O)NC(=O)[C@H](CCCCN)NC(=O)[C@H](C)NC(=O)[C@H](C)NC(=O)[C@H](CCC(N)=O)NC(=O)CNC(=O)[C@H](CCC(=O)O)NC(=O)[C@H](CC(C)C)NC(=O)[C@H](Cc1ccc(O)cc1)NC(=O)C[C@@H](NC(=O)[C@H](CO)NC(=O)C(C)(C)NC(=O)[C@H](CC(=O)O)NC(=O)[C@H](CO)NC(=O)[C@@H](NC(=O)[C@H](Cc1ccccc1)NC(=O)[C@@H](NC(=O)CNC(=O)[C@H](CCC(=O)O)NC(=O)[C@H](C)NC(=O)[C@@H](N)Cc1c[nH]cn1)[C@@H](C)O)[C@@H](C)O)C(C)C)C(=O)N[C@@H](C)C(=O)N[C@@H](Cc1c[nH]c2ccccc12)C(=O)N[C@@H](CC(C)C)C(=O)N[C@H](C(=O)N[C@@H](CCCCN)C(=O)NCC(=O)N[C@@H](CCCNC(=N)N)C(N)=O)C(C)C,"Glucagon-like peptide 1 receptor (GLP1R, Homo sapiens, UniProt P43220)","cAMP production, agonist, GloSensor luminescence",HEK293,15 min,relative to: GLP-1,efficacy,102 ± 3%
CC(=O)N[C@@H](CC(=O)O)C(=O)N[C@@H](CO)C(=O)N[C@H](C(=O)N[C@@H](CC(=O)O)C(=O)COC(=O)c1c(C)cccc1C)C(C)C,CASP9,"enzyme activity, inhibitor",,,,kinact/KI,1200 M⁻¹ s⁻¹
CN(Cc1cc(C2CC2)on1)C(=O)c1cccc(-c2ccc3c(c2)CCO3)c1,"Acetyl-coenzyme A synthetase, cytoplasmic (ACSS2, Homo sapiens, UniProt Q9NR19)","enzyme activity, inhibitor, coupled pyrophosphate",,25 µM,higher is more activity,reaction rate,0.00345 a.u.
CC(=O)N[C@H](CCc1ccccc1)C(=O)N[C@@H](CCCC(=O)O)C(=O)N1C[C@H](O)C[C@H]1C(=O)N[C@@H](CC(=O)O)C(=O)COC(=O)c1c(C)cccc1C,CASP9,"enzyme activity, inhibitor",,,,kinact/KI,53300 M⁻¹ s⁻¹
CC[C@H](C)[C@@H]1NC(=O)[C@H](Cc2ccccc2)NC(=O)[C@H](CCC(=O)O)NC(=O)[C@H](CCCNC(=N)N)NC(=O)CNC(=O)[C@@H](NC(=O)[C@H](CC(C)C)NC(=O)[C@H](CCCNC(=N)N)NC(=O)[C@@H](NC(=O)CNC(=O)[C@H](Cc2ccc(O)cc2)NC(=O)[C@@H]2CCCN2C(=O)[C@H](C)NC(=O)[C@H](C)NC(=O)[C@@H](N)CCCNC(=N)N)C(C)C)CSSC[C@@H]2NC(=O)[C@@H](NC(=O)[C@H](CO)NC(=O)[C@H](CO)NC(=O)[C@H](CO)NC(=O)[C@H](CC(C)C)NC(=O)CNC(=O)[C@H](C)NC(=O)[C@H](CC(C)C)NC(=O)[C@@H](NC(=O)[C@@H](N)CC(=O)O)C(C)C)CSSC[C@H](NC(=O)CNC(=O)[C@H](Cc3c[nH]c4ccccc34)NC(=O)[C@H](CCCCN)NC2=O)C(=O)N[C@@H](CO)C(=O)N[C@@H](CCCCN)C(=O)N[C@@H](CO)C(=O)N[C@@H](CCC(=O)O)C(=O)N[C@@H]([C@@H](C)CC)C(=O)N[C@@H](CO)C(=O)N[C@@H](CO)C(=O)N[C@@H](CC(C)C)C(=O)N[C@H](C(=O)O)CSSC[C@@H](C(=O)NCC(=O)NCC(=O)N[C@@H](CO)C(=O)N[C@@H](CCCNC(=N)N)C(=O)N[C@@H](Cc2c[nH]c3ccccc23)C(=O)O)NC(=O)[C@H]([C@@H](C)O)NC(=O)[C@H](Cc2ccccc2)NC(=O)[C@H]([C@@H](C)CC)NC(=O)[C@H](C(C)C)NC(=O)[C@H](C)NC(=O)[C@H](CCCNC(=N)N)NC1=O,"Relaxin-3 receptor 1 (RXFP3, Homo sapiens, UniProt Q9NSD7, T162A)",,HEK-293T,,relative to: wild type,Emax,84.8 ± 4.98%
CC(=O)N1C[C@H](O)C[C@H]1C(=O)N[C@H](C(=O)N[C@@H](CO)C(=O)N[C@@H](CC(=O)O)C(=O)COC(=O)c1c(C)cccc1C)C(C)C,CASP9,"enzyme activity, inhibitor",,,,kinact/KI,31400 M⁻¹ s⁻¹
N#CN1CC[C@H](C(=O)Nc2nc3c(s2)CN(C(=O)Cn2cc(CNC(=O)CCCC[C@@H]4SC[C@@H]5NC(=O)N[C@@H]54)nn2)CC3)C1,"Tubulin alpha-1B chain (Homo sapiens, UniProt P68363)","probe binding, affinity probe, neutravidin pull-down LC-MS/MS","HEK293T, cell lysate","5 µM, 1 h, mean of three replicates, unit not given",higher = more pulled down,iBAQ abundance,4.27e+08

# Some of these lines once more:
SMILES,target,test,test system,setting,scale,measurement,result
CC[C@H](C)[C@H](NC(=O)[C@H](CC(=O)O)NC(C)=O)C(=O)N[C@H](C(=O)N[C@H](C(=O)N[C@@H](CCCNC(=N)N)C(=O)N[C@@H](Cc1ccc(O)cc1)C(=O)N[C@@H](CC(N)=O)C(=O)NCC(=O)N[C@@H](CCCCN)C(=O)N[C@H](C(=O)N[C@@H](Cc1c[nH]c2ccccc12)C(=O)N[C@@H](Cc1c[nH]c2ccccc12)C(=O)N[C@@H](CCCNC(=N)N)C(=O)O)C(C)C)[C@@H](C)O)[C@@H](C)O,"Insulin (INS, Bos taurus, UniProt P01317)",circular dichroism,INS-peptide complex,"800 min, final heating stage, with: INS 350 µM",,α-helix content,62%
O=C(c1cccc(C(F)(F)F)n1)c1c[nH]c2ccccc12,"Aryl hydrocarbon receptor (AHR, Homo sapiens, UniProt P35869)","reporter gene, agonist, XRE luciferase",HepG2,,relative to: ITE,Emax,60 ± 4%
